Results gathered from unrelated publications.
Each numbered part is a random draw from the data of one study; scales do not carry over between parts. Several values in a cell are separate wells, animals, samples, runs or records.

Sample 1
Target: Ras GTPase-activating protein-binding protein 1, RRM domain (G3BP1, Homo sapiens, UniProt Q13283)
Sequence of UniProt Q13283 (whole entry, looked up): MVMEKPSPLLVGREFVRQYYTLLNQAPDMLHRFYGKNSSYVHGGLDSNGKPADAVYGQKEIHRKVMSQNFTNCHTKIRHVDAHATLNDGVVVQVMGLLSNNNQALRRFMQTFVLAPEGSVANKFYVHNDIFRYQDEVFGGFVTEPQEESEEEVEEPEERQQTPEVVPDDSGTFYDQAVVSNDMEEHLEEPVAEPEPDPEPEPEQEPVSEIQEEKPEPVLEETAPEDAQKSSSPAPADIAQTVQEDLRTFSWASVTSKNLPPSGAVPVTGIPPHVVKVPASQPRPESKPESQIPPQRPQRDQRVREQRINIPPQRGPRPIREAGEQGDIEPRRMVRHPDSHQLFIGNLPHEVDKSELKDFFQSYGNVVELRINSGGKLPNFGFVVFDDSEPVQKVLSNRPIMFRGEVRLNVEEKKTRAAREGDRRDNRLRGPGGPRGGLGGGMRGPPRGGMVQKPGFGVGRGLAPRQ
Method: RNA Bind-n-Seq
Form: RNA
Medium: in vitro
Concentration: 1 µM
Setting: whole 134-nt RNA, ends assumed
Together with: 150 mM KCl
Baseline: input library
Direction: higher = stronger binding
Measurement: log2 enrichment
GGGAGUUCUACAGUCCGACGAUCUAACUUUAGAGGAGGAUCUGAUGGAUAUGGCAGUGGACUUGGAUUUGGGGAUGGCUAUAAUGGGUAUGGAGGAGGACCUGGAGGUGGCAAUGGAAUUCUCGGGUGUCAAGG: -0.746
GGGAGUUCUACAGUCCGACGAUCUAACUUUAGAGGAGGAUCUGAUGGAUAUGGCAGUGGACGUGGAUUUGGGGAUGGCUAUAAUGGGUAUGGAGGAGGAGCUGGAGGUGGCAAUGGAAUUCUCGGGUGUCAAGG: -0.268
GGGAGUUCUACAGUCCGACGAUCACCAUGCAGGUGGGCAUCUUUGGGAAGUGGGGCAAGGGGGGGAUAGGGAGGGGGGUAACACUUGGGGAACAGGUGGUCCCAGGUCGUUUCUGGAAUUCUCGGGUGUCAAGG: 1.16
GGGAGUUCUACAGUCCGACGAUCUCCUGUGCUACACAUCGUAUGUACCGAAUCGGCCCCCCGGGCCCCCCGGGCCCCCCGGGGAAAGUAUUAUGUUACGCCGUUCGGAUCUGCUGGAAUUCUCGGGUGUCAAGG: -0.478

Sample 2
Target: Sal-like protein 4, full length isoform B (SALL4, Homo sapiens, UniProt Q9UJQ4-2, residues 1-616)
Method: universal PBM
Form: double-stranded DNA, one strand shown
Medium: in vitro
Concentration: not given
Setting: 8-mer, flanks averaged, mean of replicates
Direction: higher = stronger binding
Measurement: E-score
CAGCGCCG: -0.381
GCCCTCAA: -0.111
CGTATTTC: 0.238
AAAGGAAG: -0.116
ACAAACAC: 0.0886
GCTTACCC: -0.181

Sample 3
Target: Phosphate system positive regulatory protein PHO4, full length, GST-tagged (PHO4, Saccharomyces cerevisiae, UniProt P07270, residues 1-312)
Method: competition protein-binding microarray
Form: double-stranded DNA, one strand shown
Medium: in vitro
Concentration: 2 µM
Setting: whole 60-bp probe, lowest competitor level
Together with: Cbf1 competitor, 0.05 µM
Direction: higher = stronger binding
Measurement: fluorescence intensity
Residues (chain): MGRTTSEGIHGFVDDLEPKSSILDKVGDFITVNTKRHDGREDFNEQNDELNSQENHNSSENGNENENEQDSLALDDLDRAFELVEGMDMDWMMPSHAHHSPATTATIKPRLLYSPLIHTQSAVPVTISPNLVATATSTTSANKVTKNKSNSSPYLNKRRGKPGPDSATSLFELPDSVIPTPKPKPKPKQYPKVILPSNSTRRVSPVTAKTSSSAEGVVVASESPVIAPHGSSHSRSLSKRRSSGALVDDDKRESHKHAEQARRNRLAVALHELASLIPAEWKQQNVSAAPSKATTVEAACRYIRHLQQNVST
TAAGAGGAATGGGTGCTCGTGTCCTGGTTACCGAAAGTCTTGATTCGCTTGACGCTGCTG: 9080 a.u.
GTCTTGTCTCATTGTCACGTCACTTTCCCCACTTCAGTCTTGATTCGCTTGACGCTGCTG: 5450 a.u.
AACATATTGTGTTGACATGTGTAGGCAAAGACAAAAGTCTTGATTCGCTTGACGCTGCTG: 9350 a.u.
CTTCTGTAAATTTTTCACGTGCGCTGACGCGCCCCGGTCTTGATTCGCTTGACGCTGCTG: 13700 a.u.

Single results of other studies
PhoQ, residues 284 288 289 292 302 303 GASLAW
fold induction (PhoP, residues 12 14 15 18 19 LWHCS (Escherichia coli, UniProt P23836); Sort-seq, measured: YFP reporter; E. coli; PhoQ-PhoP variant library, together with: 10 µM Mg2+; baseline: high Mg2+ state, higher = stronger signaling): 7.58 and 11.2
